# Results pooled from the literature.
# Numbered parts are unrelated; each lists some results of a single study. “And” joins repeats or separate records; there may be more than shown.
# UniProt P09237, sequence (whole entry, looked up): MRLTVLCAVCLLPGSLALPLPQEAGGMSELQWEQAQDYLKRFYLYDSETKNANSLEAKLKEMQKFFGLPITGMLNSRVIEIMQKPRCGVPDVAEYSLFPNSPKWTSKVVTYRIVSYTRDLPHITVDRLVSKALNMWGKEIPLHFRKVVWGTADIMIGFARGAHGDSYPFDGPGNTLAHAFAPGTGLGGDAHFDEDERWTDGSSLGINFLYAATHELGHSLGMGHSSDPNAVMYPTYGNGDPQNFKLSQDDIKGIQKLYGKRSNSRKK
# UniProt P39900, sequence (whole entry, looked up): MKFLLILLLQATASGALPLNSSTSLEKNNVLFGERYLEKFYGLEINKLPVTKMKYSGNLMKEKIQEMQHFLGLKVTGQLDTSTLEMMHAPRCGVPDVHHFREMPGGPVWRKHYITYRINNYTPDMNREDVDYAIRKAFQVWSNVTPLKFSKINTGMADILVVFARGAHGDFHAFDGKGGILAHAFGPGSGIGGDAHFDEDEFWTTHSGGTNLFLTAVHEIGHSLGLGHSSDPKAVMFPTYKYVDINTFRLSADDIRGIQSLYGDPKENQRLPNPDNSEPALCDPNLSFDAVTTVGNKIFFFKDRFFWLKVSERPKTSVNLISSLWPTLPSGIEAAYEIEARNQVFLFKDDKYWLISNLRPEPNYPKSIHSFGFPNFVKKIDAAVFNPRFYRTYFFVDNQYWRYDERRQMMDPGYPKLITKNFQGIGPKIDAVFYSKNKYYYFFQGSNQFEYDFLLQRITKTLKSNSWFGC
# UniProt P08254, sequence (whole entry, looked up): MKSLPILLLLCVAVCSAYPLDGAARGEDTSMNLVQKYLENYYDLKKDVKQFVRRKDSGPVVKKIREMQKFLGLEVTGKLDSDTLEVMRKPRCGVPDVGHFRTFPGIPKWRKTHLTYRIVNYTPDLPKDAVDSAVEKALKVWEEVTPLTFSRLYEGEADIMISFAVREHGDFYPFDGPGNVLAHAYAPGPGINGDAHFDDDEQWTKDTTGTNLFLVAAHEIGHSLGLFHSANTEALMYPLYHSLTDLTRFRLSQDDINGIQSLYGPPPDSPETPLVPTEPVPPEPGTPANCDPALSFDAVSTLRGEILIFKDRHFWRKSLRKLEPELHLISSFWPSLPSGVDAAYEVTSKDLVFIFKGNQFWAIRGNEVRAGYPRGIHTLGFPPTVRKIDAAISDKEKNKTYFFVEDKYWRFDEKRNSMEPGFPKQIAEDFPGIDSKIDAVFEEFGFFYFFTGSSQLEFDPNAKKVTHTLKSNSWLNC
# UniProt P78536, sequence (whole entry, looked up): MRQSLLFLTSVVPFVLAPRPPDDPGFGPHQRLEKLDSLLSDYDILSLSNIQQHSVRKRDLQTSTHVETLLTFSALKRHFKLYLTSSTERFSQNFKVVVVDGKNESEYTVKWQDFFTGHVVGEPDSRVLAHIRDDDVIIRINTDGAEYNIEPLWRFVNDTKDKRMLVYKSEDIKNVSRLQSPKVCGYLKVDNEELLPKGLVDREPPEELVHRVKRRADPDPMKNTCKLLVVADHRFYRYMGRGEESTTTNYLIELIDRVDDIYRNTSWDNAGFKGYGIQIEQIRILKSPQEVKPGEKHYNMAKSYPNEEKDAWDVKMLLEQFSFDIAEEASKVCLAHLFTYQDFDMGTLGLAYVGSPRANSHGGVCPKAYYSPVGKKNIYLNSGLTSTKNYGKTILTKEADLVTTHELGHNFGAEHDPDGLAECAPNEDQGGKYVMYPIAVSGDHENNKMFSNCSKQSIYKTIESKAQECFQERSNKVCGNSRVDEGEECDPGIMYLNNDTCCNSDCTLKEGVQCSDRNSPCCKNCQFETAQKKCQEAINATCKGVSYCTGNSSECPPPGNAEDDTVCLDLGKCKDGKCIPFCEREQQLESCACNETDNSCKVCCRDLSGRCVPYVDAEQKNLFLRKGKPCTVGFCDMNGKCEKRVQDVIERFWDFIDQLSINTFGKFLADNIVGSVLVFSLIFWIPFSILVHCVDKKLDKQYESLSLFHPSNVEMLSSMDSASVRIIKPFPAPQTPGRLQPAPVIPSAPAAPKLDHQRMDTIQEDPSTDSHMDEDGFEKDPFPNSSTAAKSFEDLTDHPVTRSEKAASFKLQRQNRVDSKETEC
# UniProt O14672, sequence (whole entry, looked up): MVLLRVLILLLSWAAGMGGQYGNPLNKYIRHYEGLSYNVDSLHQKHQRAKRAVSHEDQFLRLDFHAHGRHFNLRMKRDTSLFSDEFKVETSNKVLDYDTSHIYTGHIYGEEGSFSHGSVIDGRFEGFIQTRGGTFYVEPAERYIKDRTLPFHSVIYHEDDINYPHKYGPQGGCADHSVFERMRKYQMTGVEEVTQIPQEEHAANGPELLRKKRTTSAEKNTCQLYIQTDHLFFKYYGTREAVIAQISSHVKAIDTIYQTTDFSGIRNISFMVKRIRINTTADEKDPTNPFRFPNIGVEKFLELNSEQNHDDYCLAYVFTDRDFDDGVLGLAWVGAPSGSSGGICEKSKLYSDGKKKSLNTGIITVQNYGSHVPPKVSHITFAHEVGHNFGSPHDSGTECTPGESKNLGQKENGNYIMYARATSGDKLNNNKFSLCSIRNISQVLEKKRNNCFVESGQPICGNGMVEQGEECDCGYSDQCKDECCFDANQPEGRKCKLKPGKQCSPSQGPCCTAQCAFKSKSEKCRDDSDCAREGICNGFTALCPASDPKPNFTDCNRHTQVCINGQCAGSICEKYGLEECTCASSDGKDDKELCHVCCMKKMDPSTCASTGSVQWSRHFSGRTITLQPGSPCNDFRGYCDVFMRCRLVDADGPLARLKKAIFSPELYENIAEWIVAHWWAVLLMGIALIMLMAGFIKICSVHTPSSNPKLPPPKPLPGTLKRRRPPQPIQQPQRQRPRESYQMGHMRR

# Set 1
# SMILES: CC(C)S(=O)(=O)c1ccc2nccc(Nc3ccc4sc(C5CCCC5)nc4c3)c2c1.Cl
# Method: CCK-8
cell line,setting,survival
L929 RIPK3-/- reexpressing RIPK3 K51A,12.5 µM,98.9% and 98% and 92.1% and 95.6%
L929 RIPK3-/- reexpressing RIPK3 K51A/R69H,"6.25 µM, with: zVAD",85.1% and 86.5% and 102% and 92.5%
L929 RIPK3-/- reexpressing RIPK3 K51A/R69H,"25 µM, with: zVAD",69.9% and 97.1% and 67.8% and 95.3% and 67.5%
L929 RIPK3-/- reexpressing RIPK3 K51A,50 µM,74.6% and 74.8% and 69% and 68.2%
L929 RIPK3-/- reexpressing RIPK3 K51A,25 µM,88.6% and 90.4% and 108% and 85.1%
L929 RIPK3-/- reexpressing RIPK3 K51A,"6.25 µM, with: zVAD",99.4% and 97% and 100% and 95.2%

# Set 2
# Target: Calcium/calmodulin-dependent protein kinase type II subunit alpha (CAMK2A, Homo sapiens, UniProt Q9UQM7)
# UniProt Q9UQM7, sequence (whole entry, looked up): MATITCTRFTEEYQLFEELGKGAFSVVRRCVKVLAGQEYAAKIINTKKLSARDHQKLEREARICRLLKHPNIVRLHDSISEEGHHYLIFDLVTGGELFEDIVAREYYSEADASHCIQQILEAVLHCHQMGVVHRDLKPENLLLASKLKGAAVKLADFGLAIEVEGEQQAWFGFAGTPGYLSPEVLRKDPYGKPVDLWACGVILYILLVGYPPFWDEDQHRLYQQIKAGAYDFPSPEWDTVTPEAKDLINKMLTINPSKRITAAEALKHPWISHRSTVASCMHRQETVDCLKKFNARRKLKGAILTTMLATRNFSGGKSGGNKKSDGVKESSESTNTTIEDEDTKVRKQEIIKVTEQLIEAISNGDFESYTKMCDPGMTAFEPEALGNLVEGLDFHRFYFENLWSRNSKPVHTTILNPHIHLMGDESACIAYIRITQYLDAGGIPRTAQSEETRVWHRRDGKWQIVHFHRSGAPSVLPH
# Read-out: enzyme activity
# Mode: inhibitor
# Concentration: 10 µM
SMILES,inhibition [%]
COc1cc2c(cc1OC)[C@H](C)NCC2,25
N=C(N)NCCC[C@H](NC(=O)[C@@H]1CCCN1C(=O)[C@@H]1CSSC[C@H](N)C(=O)N[C@@H](Cc2ccc(O)cc2)C(=O)N[C@@H](Cc2ccccc2)C(=O)N[C@@H](CCC(N)=O)C(=O)N[C@@H](CC(N)=O)C(=O)N1)C(=O)NCC(N)=O,-9
CC(C)=CCC/C(C)=C/CC/C(C)=C/Cc1c(O)c2ccccc2oc1=O,-1
CC(C)c1ccc2c(c1O)CC[C@H]1C3=C(CC[C@]21C)C(=O)OC3,-8

# Set 3
# Cell line: HEK-293T/ACE2
# Method: Hoechst nuclei count
# Concentration: concentration not given
# Time: 16 (unit not given)
# Relative to: vehicle
Compound,viability
CN(C)CCc1c[nH]c2ccc(Cn3cncn3)cc12,99.5%
CC(=O)/N=c1/sc(S(N)(=O)=O)nn1C,103%
COc1ccc(CN(C(=O)[C@@H](N)Cc2c(C)cc(C(N)=O)cc2C)[C@@H](C)c2nc(-c3ccccc3)c[nH]2)cc1C(=O)O,101%
C[Se]CC[C@H](N)C(=O)O,96.9%
CN1CCCC(n2nc(Cc3ccc(Cl)cc3)c3ccccc3c2=O)CC1 (centres unmarked),97.3%
c1ccc(CC2=NCCN2)cc1,106%
O=P(O)(O)C(O)(Cn1ccnc1)P(=O)(O)O,101%
Cc1ccc(N(CC2=NCCN2)c2cccc(O)c2)cc1,99.5%
CCCCC(=O)N(Cc1ccc(-c2ccccc2-c2nnn[nH]2)cc1)[C@H](C(=O)O)C(C)C,101%
CCOC(=O)C1=C[C@@H](OC(CC)CC)[C@H](NC(C)=O)[C@@H](N)C1,99.1%
C[C@@H]1C[C@H]2[C@@H]3CCC4=CC(=O)C=C[C@]4(C)[C@@]3(Cl)[C@@H](O)C[C@]2(C)[C@@]1(OC(=O)c1ccco1)C(=O)CCl,102%
C[C@]1(O)CC[C@H]2[C@@H]3CCC4=CC(=O)CC[C@]4(C)[C@@]3(F)[C@@H](O)C[C@@]21C,105%
C#C[C@]1(O)CC[C@H]2[C@@H]3CCC4=Cc5oncc5C[C@]4(C)[C@H]3CC[C@@]21C,97%
O=[N+]([O-])O[C@H]1CO[C@H]2[C@@H]1OC[C@H]2O[N+](=O)[O-],101%
COC(=O)N[C@H](C(=O)N[C@@H](Cc1ccccc1)[C@@H](O)CN(Cc1ccc(-c2ccccn2)cc1)NC(=O)[C@@H](NC(=O)OC)C(C)(C)C)C(C)(C)C,97.1%

# Set 4
# Structure (SMILES): CNC(=O)[C@H](Cc1c[nH]c2ccccc12)NC(=O)[C@@H](CC(=O)NO)CC(C)C
target,IC50
"MMP14 (Homo sapiens, UniProt P50281)",0.743 nM
"Matrilysin (MMP7, Homo sapiens, UniProt P09237)",8.16 nM
"ADAM10 (Homo sapiens, UniProt O14672)",755 nM
"Stromelysin-1 (MMP3, Homo sapiens, UniProt P08254)",18.7 nM
"MMP12 (Homo sapiens, UniProt P39900)",0.198 nM
"Collagenase 3 (MMP13, Homo sapiens, UniProt P45452)",0.12 nM
"ADAM17 (Homo sapiens, UniProt P78536)",38.3 nM

# For quick reference, copied from above (set 2):
SMILES,inhibition [%]
COc1cc2c(cc1OC)[C@H](C)NCC2,25
CC(C)c1ccc2c(c1O)CC[C@H]1C3=C(CC[C@]21C)C(=O)OC3,-8
CC(C)=CCC/C(C)=C/CC/C(C)=C/Cc1c(O)c2ccccc2oc1=O,-1
N=C(N)NCCC[C@H](NC(=O)[C@@H]1CCCN1C(=O)[C@@H]1CSSC[C@H](N)C(=O)N[C@@H](Cc2ccc(O)cc2)C(=O)N[C@@H](Cc2ccccc2)C(=O)N[C@@H](CCC(N)=O)C(=O)N[C@@H](CC(N)=O)C(=O)N1)C(=O)NCC(N)=O,-9
